Assay results of several laboratories.
Numbered parts are unrelated; each lists some results of a single study. Positions count from the first letter of the parent shown.

Sample 1
Target: UBE2E3 UBC core domain (UniProt Q969T4)
UniProt Q969T4, sequence (whole entry, looked up): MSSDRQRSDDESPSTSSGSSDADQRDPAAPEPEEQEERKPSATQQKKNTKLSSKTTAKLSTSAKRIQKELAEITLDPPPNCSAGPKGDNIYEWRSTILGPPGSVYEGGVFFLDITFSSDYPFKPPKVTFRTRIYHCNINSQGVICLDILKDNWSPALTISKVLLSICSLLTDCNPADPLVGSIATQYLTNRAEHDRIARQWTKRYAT
Method: yeast two-hybrid
Matrix: yeast
Setting: mostly zero background
Baseline: not given
Reading: higher = stronger interaction
B1: TRIM74 RING domain (UniProt Q86UV6); chain SLLELEDWLQCPICLEVFKESLMLQCGHSYCKGCLVSLSYHLDTKVRCPMCWQVVDGSSSLP
B2: RNF32 RING domain (UniProt Q9H0A6); chain VQALRRETHECSICLAPLSAAGGQRVGAGRRSREMALLSCSHVFHHACLLALEEFSVGDRPPFHACPLCRSCYQKKILEC
B3: RNF7 RING domain (UniProt Q9UBF6); chain AICRVQVMDACLRCQAENKQEDCVVVWGECNHSFHNCCMSLWVKQNNRCPLCQQDWVVQRIGK
B4: RNF130 RING domain (UniProt Q86XS8); chain DKETDPDFDHCAVCIESYKQNDVVRILPCKHVFHKSCVDPWLSEHCTCPMCKLNILKALGIV
B5: TRIM32 RING domain (UniProt Q13049); chain NLDALREVLECPICMESFTEEQLRPKLLHCGHTICRQCLEKLLASSINGVRCPFCSKITRITSLTQ
B6: MARCHF2 RING domain (UniProt Q9P0N8); chain RLLSTVIRALDTPSDGPFCRICHEGANGECLLSPCGCTGTLGAVHKSCLEKWLSSSNTSYCELCHTEFAVEKRPRPLTEWL
B7: TRIM47 RING domain (UniProt Q96LD4); chain MDGSGPFSCPICLEPLREPVTLPCGHNFCLACLGALWPHRGASGAGGPGGAARCPLCQEPFPDGLQLR
Molecule	lacZ reporter activity
B1 (TRIM74 RING domain)	0
B2 (RNF32 RING domain)	0
AAQLLEEKLTCAICLGLYQDPVTLPCGHNFCGACIRDWWDRCGKACPECREPFPDGAELR (TRIM65 RING domain (UniProt Q6PJ69))	0
B3 (RNF7 RING domain)	0
PLRRLQEEKLCKICMDRHIAVVFIPCGHLVTCKQCAEAVDRCPMCSAVIDFKQRVF (BIRC8 RING domain (UniProt Q96P09))	0
B4 (RNF130 RING domain)	4020
B5 (TRIM32 RING domain)	0
B6 (MARCHF2 RING domain)	0
B7 (TRIM47 RING domain)	0

Sample 2
Target: Histone acetyltransferase KAT6A, winged helix 1, GST fusion (KAT6A, Homo sapiens, UniProt Q92794, residues 1-85)
Method: protein binding microarray
Form: double-stranded DNA, one strand shown
Matrix: in vitro
Concentration: not given
Setting: 8-mer, flanks averaged, mean of 2 arrays, mostly near background
Baseline: not given
Reading: higher = stronger binding
Residues (chain): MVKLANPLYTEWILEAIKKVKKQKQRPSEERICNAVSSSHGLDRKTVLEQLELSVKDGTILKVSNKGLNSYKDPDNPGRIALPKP
Sequence	E-score
CAAACGTC	0.0146
ACTAAGAT	-0.0501
CTGGAATA	-0.115
GACCACAC	-0.199
AACGAGTT	-0.219
AAGAGGCT	-0.278
AAACCACG	-0.000545
CGTACTTC	0.105
TATTCAAA	-0.0788
CTAGCTAG	-0.162
AGAACCCG	0.159
ATGGCCGC	0.35
TACATATA	-0.154
AGACTCAT	-0.186
CAACTCTA	-0.122
ATCCCACC	-0.00583
CGATGTTA	0.0625
AGATTTGA	-0.0909
ATAGTCTA	-0.0514
ACGTCGTG	-0.0729
ATGTTTTA	-0.204
CTTTCCTC	-0.124
TCTTGTCA	-0.137
TAAAACTA	-0.0735
ATAGCCAA	-0.142

Sample 3
Target: Sal-like protein 4, full length isoform B (SALL4, Homo sapiens, UniProt Q9UJQ4-2, residues 1-616)
Method: universal PBM
Form: double-stranded DNA, one strand shown
Matrix: in vitro
Concentration: not given
Setting: 8-mer, flanks averaged, mean of replicates
Reading: higher = stronger binding
Target sequence (chain): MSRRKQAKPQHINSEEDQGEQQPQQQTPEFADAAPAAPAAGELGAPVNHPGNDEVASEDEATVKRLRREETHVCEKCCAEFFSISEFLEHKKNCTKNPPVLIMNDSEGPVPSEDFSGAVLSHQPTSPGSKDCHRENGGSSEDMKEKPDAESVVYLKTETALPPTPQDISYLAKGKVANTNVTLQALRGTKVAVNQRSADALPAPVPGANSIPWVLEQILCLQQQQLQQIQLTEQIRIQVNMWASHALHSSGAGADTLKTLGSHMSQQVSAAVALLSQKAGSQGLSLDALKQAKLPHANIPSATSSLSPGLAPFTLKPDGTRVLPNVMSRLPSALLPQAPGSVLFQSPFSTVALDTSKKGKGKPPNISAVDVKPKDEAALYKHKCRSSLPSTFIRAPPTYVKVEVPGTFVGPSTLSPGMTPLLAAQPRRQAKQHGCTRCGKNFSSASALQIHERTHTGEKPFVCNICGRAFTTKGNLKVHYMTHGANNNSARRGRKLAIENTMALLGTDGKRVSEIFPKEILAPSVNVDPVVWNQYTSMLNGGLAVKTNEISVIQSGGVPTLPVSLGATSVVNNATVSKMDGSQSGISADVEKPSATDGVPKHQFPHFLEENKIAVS
Sequence	E-score
TAGCGAAA	0.217
CTACGGTA	-0.11
GAGGCGCC	-0.335
AACCTTCC	-0.169
TGCCAACA	-0.0524
AAGGCCGA	-0.111
CACAATAC	0.132
CATTTGAC	0.119
TGTACGAA	0.224
ATGACGCG	0.0749
CACTCCGA	-0.2
GCACCACA	-0.115
GCCAGAGC	-0.262
ACTCGGCC	-0.238
AAGGTCTA	-0.024
CAAGCGCA	-0.00201
AGTTAACA	0.152
GTAAGAGA	0.0573
CATGCCGA	0.00108
GATCAACC	-0.172
ACGTCTCG	-0.0284
GCAGGAAC	-0.138
CTGTCGTA	0.0149
CTCGGTGA	-0.116

Sample 4
Target: CREB3L2, bZIP domain (human)
Method: DHFR protein complementation
Matrix: yeast
Setting: single substitutions, most at no-binding floor
Baseline: wild-type JUN-FOS pair
Reading: higher = stronger binding
Starting sequence: JUN, bZIP domain (human); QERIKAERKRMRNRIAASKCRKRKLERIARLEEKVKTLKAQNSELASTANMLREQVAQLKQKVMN; partner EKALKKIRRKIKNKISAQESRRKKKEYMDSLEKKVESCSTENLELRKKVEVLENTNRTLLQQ
Change	binding fitness [natural log]
A49N	-1.42
V56A	-1.46
K39N	-1.48
L52I	-1.3
T48A	-1.48
S43V	-1.46
L52P	-1.55
A29E	-1.41
A40W	-1.42
T48H	-1.45
V35S	-1.5
A40N	-1.47
K36S	-1.46
L45G	-1.5
A29C	-1.28
Q41H	-1.39
Q41A	-1.29
T48W	-1.41
A49E	-1.51
K34G	-1.48

Sample 5
Target: Ras GTPase-activating protein-binding protein 1, full length (G3BP1, Homo sapiens, UniProt Q13283)
UniProt Q13283, sequence (whole entry, looked up): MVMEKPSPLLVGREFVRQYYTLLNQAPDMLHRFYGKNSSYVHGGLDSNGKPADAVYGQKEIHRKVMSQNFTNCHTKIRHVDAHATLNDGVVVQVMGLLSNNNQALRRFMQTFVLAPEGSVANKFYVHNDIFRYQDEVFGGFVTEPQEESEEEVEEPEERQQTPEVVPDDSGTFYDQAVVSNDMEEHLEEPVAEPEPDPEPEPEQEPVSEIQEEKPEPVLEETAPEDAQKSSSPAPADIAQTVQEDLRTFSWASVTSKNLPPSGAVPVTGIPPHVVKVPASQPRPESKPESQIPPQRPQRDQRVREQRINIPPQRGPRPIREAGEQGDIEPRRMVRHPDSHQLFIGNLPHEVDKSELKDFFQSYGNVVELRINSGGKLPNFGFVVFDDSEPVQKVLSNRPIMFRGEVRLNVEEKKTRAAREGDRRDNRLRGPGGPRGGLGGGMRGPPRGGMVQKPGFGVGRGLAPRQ
Method: RNA Bind-n-Seq
Form: RNA
Matrix: in vitro
Concentration: 200 nM
Setting: whole 134-nt RNA, ends assumed
Added: 150 mM KCl
Baseline: input library
Reading: higher = stronger binding
Sequence	log2 enrichment
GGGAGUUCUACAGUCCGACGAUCUUUCUCUCACCAGGUACCAGGUCAUCAGUACACCAUCUGAUAUUUUCAUGGUGAUGGAAUAUGUCUCAGGAGGAGAGCUAUUUGAUUAUAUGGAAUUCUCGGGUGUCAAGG	-0.821
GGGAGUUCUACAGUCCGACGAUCUGCCCAGCUCAUGCUGGACCACCUGAAGAACAGUGCUCCCAGCAAGCGAGAGAUUGCCCAGCUCAAGAACCAGGUAUCCACAGAGAGCACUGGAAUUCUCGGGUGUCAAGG	-0.825
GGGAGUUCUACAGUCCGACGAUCCACAGACAACACGCACCCACACAGACACAGAGGGAAGGGGUUGGGAUGGGGACAGGGUGCACAGCAGGGCGGGGUAGGACCCAAACCCCUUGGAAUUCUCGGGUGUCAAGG	1.82
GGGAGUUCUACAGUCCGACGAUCACCAUGCAGGUGGGCAUCUUUGGGAAGUGGGGCAAGGGGGGGAUAGGGAGGGGGGUAACAAAAUGGGAACAGGUGGUCCCAGGUCGUUUCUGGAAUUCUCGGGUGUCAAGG	1.11
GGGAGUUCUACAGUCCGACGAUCCCUGUGCUACACAUCGUAUGUACCGAAUCAAACCCCCAAAUUUUUUUAAAUUUUUUUAAAAAAGUAUUAUGUUACGCCGUUCGGAUCUGCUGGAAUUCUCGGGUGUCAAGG	0.217
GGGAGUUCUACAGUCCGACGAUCUGGCCCUGGUGGCAUGCGGGGAGGAAGAGGUGGCCUCAUGGAUCGUGGUGGUCCCGGUGGAAUGUUCUGAGGUGGCCGUGGUGGAGACAGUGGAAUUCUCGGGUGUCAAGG	0.194
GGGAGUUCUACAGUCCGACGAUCUCAAGUCCUGUGCUACACAUCGUAUGUACCGAAUCGGGGCCGGGGCCGGCCGGGGAAAGUAUUAUGUUACGCCGUUCGGAUCUGCACUUCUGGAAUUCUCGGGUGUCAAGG	-0.645
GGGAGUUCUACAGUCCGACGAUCACCAUGCAGGUGGGCAUCUUUGGGAAGUGGGGCAAGGGGGGGAUAGGGAGGGGGGUAACACUUUGGGAACAGGUGGUCCCAGGUGGUUUCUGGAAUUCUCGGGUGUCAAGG	1.13

Sample 6
Target: CCND3, cyclin fold, Cln2 fusion (human)
Method: yeast growth competition, sequencing
Matrix: yeast
Setting: weak parent motif
Baseline: not given
Reading: higher = stronger binding
Starting sequence: MICAL3 docking peptide (human); LQLRRQLSFSEDS
Change	normalised enrichment score
LQLRRTLSFSEDS [Q6T]	-0.0449
LQTRRQLSFSEDS [L3T]	0.0551
LQLRRQLSFSWDS [E11W]	-0.0733
LQLRRQLPFSEDS [S8P]	0.162
LQLWRQLSFSEDS [R4W]	0.547
LQLRAQLSFSEDS [R5A]	0.0741
LQLRRRLSFSEDS [Q6R]	-0.0453
LQLRRQLSFSKDS [E11K]	0.555
LQLRRQLLFSEDS [S8L]	0.342
LQMRRQLSFSEDS [L3M]	-0.266
LQLRRQDSFSEDS [L7D]	-0.0918
LCLRRQLSFSEDS [Q2C]	0.318
LQLRRQLSFSENS [D12N]	-0.019
LQHRRQLSFSEDS [L3H]	-0.106
LQLRRQLSFLEDS [S10L]	0.343
LALRRQLSFSEDS [Q2A]	-0.387
LQLRRQLSFDEDS [S10D]	-0.132
LQLRRQLKFSEDS [S8K]	0.209

Sample 7
Target: ABI1, truncated, D143A, DHFR fusion (Arabidopsis thaliana)
Method: DHFR PCA, deep sequencing
Matrix: yeast
Setting: methotrexate growth selection, single substitutions
Added: (+)-ABA 0.39 µM
Baseline: wild-type fitted maximum
Reading: higher = stronger binding
Starting sequence: PYL1, truncated, DHFR fusion (Arabidopsis thaliana); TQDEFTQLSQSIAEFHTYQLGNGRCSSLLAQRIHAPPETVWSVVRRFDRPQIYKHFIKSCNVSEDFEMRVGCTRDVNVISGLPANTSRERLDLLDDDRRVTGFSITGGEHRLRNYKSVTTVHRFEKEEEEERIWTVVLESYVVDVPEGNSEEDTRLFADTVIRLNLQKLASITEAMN
Change	relative binding score
I105D	-11.3%
V118D	7.45%
W41P	1.13%
R88V	51.7%
I33H	-0.148%
R45K	-0.649%
K58L	27.9%
Y18E	-2.42%
T17Q	10.5%
E131Q	63%
V78M	65.6%
E130T	46.9%
F66A	17.8%
T17G	1.87%
G107Y	1.85%
Q31V	1.37%
A84V	23.6%
Y115A	-8.28%

For quick reference, copied from above (sample 4):
Change	binding fitness [natural log]
A40W	-1.42
A49N	-1.42
S43V	-1.46
K34G	-1.48
A40N	-1.47
T48W	-1.41
K36S	-1.46
T48A	-1.48
L52P	-1.55
K39N	-1.48
A29C	-1.28
Q41H	-1.39
A49E	-1.51
V35S	-1.5
Q41A	-1.29
T48H	-1.45
L52I	-1.3
L45G	-1.5
V56A	-1.46
A29E	-1.41
